Published values pooled from the literature.
Numbered parts are unrelated; each lists some results of a single study. Values joined by “and” are separate records of one study, mostly repeats; a detail may differ.
Chain of UniProt Q9UPZ9 (whole entry, looked up): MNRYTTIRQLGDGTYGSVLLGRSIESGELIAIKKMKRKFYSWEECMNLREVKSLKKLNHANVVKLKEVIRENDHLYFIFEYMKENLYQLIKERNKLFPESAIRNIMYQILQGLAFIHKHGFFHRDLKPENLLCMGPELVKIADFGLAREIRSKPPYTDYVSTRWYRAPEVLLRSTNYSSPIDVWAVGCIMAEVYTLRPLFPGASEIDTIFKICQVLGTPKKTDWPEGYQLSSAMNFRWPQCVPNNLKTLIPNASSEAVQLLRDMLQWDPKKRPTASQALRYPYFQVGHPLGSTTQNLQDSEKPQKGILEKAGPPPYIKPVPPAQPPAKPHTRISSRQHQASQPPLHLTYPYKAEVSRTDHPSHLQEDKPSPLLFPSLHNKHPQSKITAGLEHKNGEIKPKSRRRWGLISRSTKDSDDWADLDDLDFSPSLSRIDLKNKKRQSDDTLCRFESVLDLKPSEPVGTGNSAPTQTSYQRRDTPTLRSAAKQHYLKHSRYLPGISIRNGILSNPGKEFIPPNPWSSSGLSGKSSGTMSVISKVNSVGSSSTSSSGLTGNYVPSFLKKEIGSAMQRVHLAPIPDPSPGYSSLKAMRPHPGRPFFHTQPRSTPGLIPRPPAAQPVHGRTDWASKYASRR
Chain of UniProt P42336 (whole entry, unmodified, looked up): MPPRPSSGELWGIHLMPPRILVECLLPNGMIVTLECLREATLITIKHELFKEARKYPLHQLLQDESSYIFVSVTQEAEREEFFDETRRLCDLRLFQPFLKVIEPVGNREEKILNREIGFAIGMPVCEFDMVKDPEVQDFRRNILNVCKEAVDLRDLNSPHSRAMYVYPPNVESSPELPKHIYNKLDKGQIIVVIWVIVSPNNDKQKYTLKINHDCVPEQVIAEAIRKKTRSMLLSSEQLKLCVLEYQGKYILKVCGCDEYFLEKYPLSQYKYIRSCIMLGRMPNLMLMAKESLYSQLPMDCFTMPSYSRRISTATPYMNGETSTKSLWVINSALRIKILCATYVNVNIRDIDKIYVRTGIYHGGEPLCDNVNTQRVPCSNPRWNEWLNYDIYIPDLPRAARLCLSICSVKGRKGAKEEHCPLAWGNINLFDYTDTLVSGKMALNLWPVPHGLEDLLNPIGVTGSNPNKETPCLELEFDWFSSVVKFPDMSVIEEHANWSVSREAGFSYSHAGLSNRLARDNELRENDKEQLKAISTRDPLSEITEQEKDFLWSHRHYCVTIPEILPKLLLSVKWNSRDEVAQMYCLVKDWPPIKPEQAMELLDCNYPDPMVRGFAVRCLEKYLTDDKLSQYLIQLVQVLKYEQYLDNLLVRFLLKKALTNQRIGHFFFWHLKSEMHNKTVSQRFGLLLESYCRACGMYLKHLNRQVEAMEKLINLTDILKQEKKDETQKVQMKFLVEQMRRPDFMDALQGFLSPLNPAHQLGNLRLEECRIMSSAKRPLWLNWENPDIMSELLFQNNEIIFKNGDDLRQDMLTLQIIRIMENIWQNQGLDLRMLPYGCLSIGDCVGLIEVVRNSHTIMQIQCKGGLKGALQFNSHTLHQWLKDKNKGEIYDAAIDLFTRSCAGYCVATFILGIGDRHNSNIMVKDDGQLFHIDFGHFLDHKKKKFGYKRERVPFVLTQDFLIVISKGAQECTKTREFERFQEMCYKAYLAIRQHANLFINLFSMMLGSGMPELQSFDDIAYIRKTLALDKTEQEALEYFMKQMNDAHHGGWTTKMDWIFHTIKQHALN
Chain of UniProt P11802 (whole entry, looked up): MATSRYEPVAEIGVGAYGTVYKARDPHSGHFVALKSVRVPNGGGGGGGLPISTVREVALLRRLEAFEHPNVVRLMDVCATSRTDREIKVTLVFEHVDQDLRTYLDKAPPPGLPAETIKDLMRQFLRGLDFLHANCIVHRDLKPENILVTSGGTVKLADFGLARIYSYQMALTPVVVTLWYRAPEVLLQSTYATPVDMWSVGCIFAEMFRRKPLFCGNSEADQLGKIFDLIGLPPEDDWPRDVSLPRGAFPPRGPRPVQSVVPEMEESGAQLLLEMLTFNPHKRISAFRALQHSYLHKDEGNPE

Study 1 — cell line: HuT78; concentration: 2 µM; time: 48 h; baseline: untreated
| Compound | viability [%] |
| --- | --- |
| COc1cc(OC)c(/C=C/S(=O)(=O)Cc2ccc(OC)c(NCC(=O)O)c2)c(OC)c1 | 30.9 |
| Nc1cc(C(F)(F)F)c(-c2cc(N3CCOCC3)nc(N3CCOCC3)n2)cn1 | 34.9 |
| O=C1NC(=O)C(c2ccccc2[N+](=O)[O-])=C1Nc1ccc(O)c(Cl)c1 | 118 |
| Cc1cc(C(C)Nc2ccccc2)c2nc(N3CCOCC3)cc(=O)n2c1 (stereo not shown) | 93.1 |

Study 2 — effect on: binding; concentration: 1 µM
Structure (SMILES): CN1CCN(C(=O)c2ccc(NC(=O)Nc3ccc(N(C)c4ccnc(Nc5ccc(CS(C)(=O)=O)cc5)n4)cc3)cc2)CC1
| target | remaining binding [%] |
| --- | --- |
| FGFR3 (Homo sapiens, UniProt P22607, G697C) | 100 |
| WNK2 (Homo sapiens, UniProt Q9Y3S1) | 67 |
| PIK3CA (Homo sapiens, UniProt P42336, I800L) | 98 |

Study 3 — method: phase 2a trial; host: idiopathic pulmonary fibrosis patients
SMILES: CC(C)n1cnc(-c2ccc(F)cc2)c1-c1ncc(C(=O)Nc2ccc(N3CCN(C)CC3)cc2)[nH]1
| conditions | patients with soft tissue infection |
| --- | --- |
| 60 mg once daily, grade 3 | 0% |
| 60 mg once daily, grade 4 | 0% |
| 30 mg once daily, grade 4 | 0% |

Study 4 — method: competition with immobilised ligand; concentration: 0.1 µM
Compound: CS(=O)(=O)N1CCCC(NC(=O)[C@H](CCC2CCCCC2)NC(=O)c2ccc(CNc3ncnc4c3nnn4-c3ccccc3)cc2)C1 (stereo partly shown)
| target | test | remaining binding [%] |
| --- | --- | --- |
| MTOR (Homo sapiens, UniProt P42345) | cell-free assay | 100 |
| RIPK2 (Homo sapiens, UniProt O43353) | cell-free assay | 59 |
| MAP3K14 (Homo sapiens, UniProt Q99558) | cell-free assay | 83 |
| Cyclin-dependent kinase 4, with cyclin D1 (CDK4, Homo sapiens, UniProt P11802) | cell-free assay | 100 |
| CILK1 (Homo sapiens, UniProt Q9UPZ9) | binding | 100 |

Study 5 — effect on: enzyme activity; action: inhibitor; concentration: 0.5 µM; baseline: control
Target: Serine/threonine-protein kinase Nek3 (NEK3, Homo sapiens, UniProt P51956)
Chain of UniProt P51956 (whole entry, looked up): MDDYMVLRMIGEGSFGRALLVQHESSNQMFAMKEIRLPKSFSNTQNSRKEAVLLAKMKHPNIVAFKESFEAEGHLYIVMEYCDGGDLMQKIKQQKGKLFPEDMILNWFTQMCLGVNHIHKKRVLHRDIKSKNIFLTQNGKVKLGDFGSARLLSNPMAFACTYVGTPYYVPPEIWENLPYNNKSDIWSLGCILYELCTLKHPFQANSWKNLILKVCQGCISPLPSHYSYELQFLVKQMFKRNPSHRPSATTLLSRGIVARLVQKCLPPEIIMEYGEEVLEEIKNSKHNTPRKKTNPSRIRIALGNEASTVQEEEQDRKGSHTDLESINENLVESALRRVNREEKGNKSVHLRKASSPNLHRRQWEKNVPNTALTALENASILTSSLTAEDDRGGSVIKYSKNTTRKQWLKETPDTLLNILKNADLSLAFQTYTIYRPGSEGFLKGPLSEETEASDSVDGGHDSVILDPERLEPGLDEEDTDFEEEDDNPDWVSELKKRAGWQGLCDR
| Structure (SMILES) | remaining activity |
| --- | --- |
| Oc1ccc(-c2nc(-c3ccncc3)c(-c3ccc(F)cc3)[nH]2)cc1 | 99.3% |
| OCC(O)CCON=C1C(c2c(O)[nH]c3ccccc23)=Nc2ccccc21 (stereo not shown) | 102% |
| Nc1[nH]nc2nc3ccccc3nc12 | 94.9% |
| Nc1ncnc2n[nH]c(Nc3ccc(F)cc3)c12 | 102% |
| COc1cc2nccc(Oc3ccc(NC(=S)NC(=O)c4ccccc4C)cc3)c2cc1OC | 99.6% |
| O=C(O)c1ccc2c3c1cccc3c(=O)n1c3ccccc3nc21 | 91.8% |
| Cc1nc(-c2ccccc2)c(-c2ccncc2)o1 | 93.7% |
| COc1ccc(C(=O)Nc2sc3c(c2C(N)=O)CCCC3)cc1OC | 95.8% |
| O=C1NC(=O)C(c2cn(CCCO)c3ncccc23)=C1c1cnccn1 | 97.5% |
| COc1cc2ncnc(Nc3ccc(F)c(Cl)c3)c2cc1OCCCN1CCOCC1 | 94.4% |
| O=c1c2ccccc2[nH]c(=S)n1CCN1CCC(=C(c2ccc(F)cc2)c2ccc(F)cc2)CC1 | 94% |
| O=C(Nc1cccc(Nc2cc(Nc3cccc(C(F)(F)F)c3)ncn2)c1)C1CC1 | 94.4% |
| Cn1c2ccccc2c2c3c(c4c5ccccc5n(CCC#N)c4c21)CNC3=O | 133% |
| N#CC(C#N)=C(N)/C(C#N)=C/c1ccc(O)cc1 | 98% |
| CC(C)[C@H](CO)Nc1nc(Nc2cc(N)cc(Cl)c2)c2ncn(C(C)C)c2n1 | 100% |
| COc1ccc(OC)c2c(=S)c3ccccc3[nH]c12 | 107% |
| CN(C)c1ccc(C=C2C(=O)Nc3ccccc32)cc1 | 95.2% |
| O=C1NC(=O)C(c2cn(CCCn3ccnc3)c3ccccc23)=C1Nc1ccccc1 | 99.5% |
| Cc1ccc(NC(=O)c2ccc(CN3CCN(C)CC3)cc2)cc1Nc1nc(-c2cccnc2)cs1 | 99.3% |
| C#Cc1cccc(Nc2ncnc3cc(OCCOC)c(OCCOC)cc23)c1 | 95.6% |
| Nc1ccc2ncnc(NCCc3ccc(Oc4ccccc4)cc3)c2c1 | 108% |
| CO[C@H]1C[C@@H]2CC[C@@H](C)[C@@](O)(O2)C(=O)C(=O)N2CCCC[C@H]2C(=O)O[C@H]([C@H](C)C[C@@H]2CC[C@@H](O)[C@H](OC)C2)CC(=O)[C@H](C)/C=C(\C)[C@@H](O)[C@@H](OC)C(=O)[C@H](C)C[C@H](C)/C=C/C=C/C=C/1C | 99% |
| Cc1cccc(-c2[nH]c(C(C)(C)C)nc2-c2ccc3c(c2)OCO3)n1 | 85.6% |
| CCOC(=O)c1c(C)[nH]c(/C=C2\C(=O)Nc3ccccc32)c1C | 101% |

Study 6 — organism: Sarcocystis neurona; effect on: parasite growth; concentration: 10 µM; time: 96 h; setting: second screen; baseline: untreated
| Compound | log2 fold change |
| --- | --- |
| COCC1=C(C(=O)OC(C)OC(=O)OC(C)C)N2C(=O)[C@@H](NC(=O)/C(=N\OC)c3csc(N)n3)[C@H]2SC1 (stereo partly shown) | 0.36 |
| CCOC(=O)OC(C)OC1=C(C(=O)Nc2ccccn2)N(C)S(=O)(=O)c2ccccc21 (stereo not shown) | 0.41 |
| Cc1ccc(-c2cc(C(F)(F)F)nn2-c2ccc(S(N)(=O)=O)cc2)cc1 | 0.65 |
| CCOC(=O)c1ncn2c1CN(C)C(=O)c1cc(F)ccc1-2 | 0.05 |
| C[C@]12C[C@H](O)[C@H]3[C@@H](CCC4=CC(=O)CC[C@@]43C)[C@@H]1CC[C@@H]2C(=O)CO | 0.08 |

Study 7 — host: human; medium: microsomes or S9; concentration: 2 µM; time: 0.5 h
| SMILES | remaining compound |
| --- | --- |
| Cc1cnc(C2CC2)n1C1CCCN(C(=O)c2ccccn2)C1 (stereo not shown) | > 100% |
| CCS(=O)(=O)CCNC(=O)NC(C)c1ccc(C)s1 (stereo not shown) | 95.2% |
| Cc1ccccc1CNc1ccccc1NC(=O)c1ccc(C(=O)c2cc[nH]c2)cc1 | 16.7% |

Mixed results — effect on: enzyme activity; action: inhibitor; concentration: 77 µM; baseline: untreated
Target: DNA polymerase theta, ATPase domain (POLQ, Homo sapiens, UniProt O75417)
Chain of UniProt O75417 (whole entry, unmodified, looked up): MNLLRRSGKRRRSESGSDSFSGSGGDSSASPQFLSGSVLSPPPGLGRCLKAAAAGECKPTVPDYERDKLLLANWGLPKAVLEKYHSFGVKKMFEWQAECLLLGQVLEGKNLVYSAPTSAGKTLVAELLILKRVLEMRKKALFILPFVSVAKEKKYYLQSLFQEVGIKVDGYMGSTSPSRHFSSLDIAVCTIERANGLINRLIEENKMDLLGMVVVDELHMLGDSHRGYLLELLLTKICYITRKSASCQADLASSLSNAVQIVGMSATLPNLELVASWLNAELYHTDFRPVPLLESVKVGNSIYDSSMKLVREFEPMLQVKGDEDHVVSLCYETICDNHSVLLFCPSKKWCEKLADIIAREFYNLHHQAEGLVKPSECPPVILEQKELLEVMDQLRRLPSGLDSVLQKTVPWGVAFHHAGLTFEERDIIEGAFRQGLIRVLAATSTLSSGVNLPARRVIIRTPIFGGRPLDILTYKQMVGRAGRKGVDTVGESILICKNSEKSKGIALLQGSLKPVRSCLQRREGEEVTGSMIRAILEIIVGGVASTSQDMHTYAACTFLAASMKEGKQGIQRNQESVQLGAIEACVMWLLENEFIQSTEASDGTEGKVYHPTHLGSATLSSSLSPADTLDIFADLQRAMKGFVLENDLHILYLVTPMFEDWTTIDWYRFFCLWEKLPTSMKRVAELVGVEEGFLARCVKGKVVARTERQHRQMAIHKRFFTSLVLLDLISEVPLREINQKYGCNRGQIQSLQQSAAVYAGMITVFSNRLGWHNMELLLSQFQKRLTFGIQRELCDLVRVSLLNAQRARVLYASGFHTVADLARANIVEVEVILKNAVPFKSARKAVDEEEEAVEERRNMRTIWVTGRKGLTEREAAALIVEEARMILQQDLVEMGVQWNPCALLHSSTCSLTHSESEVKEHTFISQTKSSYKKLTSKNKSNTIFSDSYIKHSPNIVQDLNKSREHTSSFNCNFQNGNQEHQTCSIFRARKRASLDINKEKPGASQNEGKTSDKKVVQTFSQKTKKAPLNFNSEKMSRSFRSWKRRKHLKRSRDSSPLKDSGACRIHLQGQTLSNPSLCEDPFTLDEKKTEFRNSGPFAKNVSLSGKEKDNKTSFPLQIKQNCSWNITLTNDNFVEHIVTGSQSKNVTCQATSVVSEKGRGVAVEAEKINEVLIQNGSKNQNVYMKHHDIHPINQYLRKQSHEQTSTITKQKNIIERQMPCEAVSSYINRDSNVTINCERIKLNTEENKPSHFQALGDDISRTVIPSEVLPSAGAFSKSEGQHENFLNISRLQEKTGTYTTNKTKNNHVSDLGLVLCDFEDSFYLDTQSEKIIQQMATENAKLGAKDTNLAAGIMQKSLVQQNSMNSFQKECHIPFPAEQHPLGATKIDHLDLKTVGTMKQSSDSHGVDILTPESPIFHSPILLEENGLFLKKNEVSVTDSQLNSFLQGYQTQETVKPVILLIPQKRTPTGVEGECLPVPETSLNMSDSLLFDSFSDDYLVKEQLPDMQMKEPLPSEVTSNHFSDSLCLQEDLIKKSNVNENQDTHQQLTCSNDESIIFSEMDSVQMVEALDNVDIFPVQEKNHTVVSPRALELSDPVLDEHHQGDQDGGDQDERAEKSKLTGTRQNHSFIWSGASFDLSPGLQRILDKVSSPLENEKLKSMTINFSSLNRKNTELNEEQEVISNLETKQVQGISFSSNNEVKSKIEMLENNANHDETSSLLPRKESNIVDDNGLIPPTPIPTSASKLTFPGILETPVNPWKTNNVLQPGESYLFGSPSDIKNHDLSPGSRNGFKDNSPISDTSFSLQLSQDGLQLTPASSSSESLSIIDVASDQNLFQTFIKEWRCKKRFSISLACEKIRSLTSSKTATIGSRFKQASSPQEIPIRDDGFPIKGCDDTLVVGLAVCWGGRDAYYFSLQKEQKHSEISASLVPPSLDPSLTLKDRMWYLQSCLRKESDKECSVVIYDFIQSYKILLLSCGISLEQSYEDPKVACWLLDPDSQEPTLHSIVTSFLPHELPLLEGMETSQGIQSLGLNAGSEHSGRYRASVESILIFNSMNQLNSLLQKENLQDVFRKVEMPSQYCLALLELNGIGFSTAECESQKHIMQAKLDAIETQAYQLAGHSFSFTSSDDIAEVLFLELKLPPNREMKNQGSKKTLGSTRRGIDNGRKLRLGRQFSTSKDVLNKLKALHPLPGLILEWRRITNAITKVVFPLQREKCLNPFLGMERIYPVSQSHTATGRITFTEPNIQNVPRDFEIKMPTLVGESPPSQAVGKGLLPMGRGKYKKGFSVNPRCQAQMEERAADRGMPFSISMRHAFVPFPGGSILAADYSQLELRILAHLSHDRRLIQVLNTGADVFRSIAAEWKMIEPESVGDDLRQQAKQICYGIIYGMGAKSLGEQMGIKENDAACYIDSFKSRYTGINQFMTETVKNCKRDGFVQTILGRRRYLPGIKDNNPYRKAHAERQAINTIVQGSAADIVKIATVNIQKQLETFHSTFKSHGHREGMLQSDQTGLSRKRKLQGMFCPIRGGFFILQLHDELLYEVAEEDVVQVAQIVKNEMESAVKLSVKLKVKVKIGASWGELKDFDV
| Structure (SMILES) | remaining activity |
| --- | --- |
| Cn1ccnc1S | 98.3% and 100% |
| CCOC(=O)[C@H](CCc1ccccc1)N[C@H]1CCCN2CCC[C@@H](C(=O)O)N2C1=O | 98.2% |

Excerpt of the above (study 5):
| Structure (SMILES) | remaining activity |
| --- | --- |
| Nc1ncnc2n[nH]c(Nc3ccc(F)cc3)c12 | 102% |
| COc1cc2nccc(Oc3ccc(NC(=S)NC(=O)c4ccccc4C)cc3)c2cc1OC | 99.6% |
| O=C(O)c1ccc2c3c1cccc3c(=O)n1c3ccccc3nc21 | 91.8% |
| Cc1nc(-c2ccccc2)c(-c2ccncc2)o1 | 93.7% |
| COc1ccc(C(=O)Nc2sc3c(c2C(N)=O)CCCC3)cc1OC | 95.8% |
| O=C1NC(=O)C(c2cn(CCCO)c3ncccc23)=C1c1cnccn1 | 97.5% |
